# Assay results collected from several papers.
# Each line is one published result; not all experiments were run side by side.
Structure (SMILES),cell line,test,setting,how to read,endpoint,result
Cc1ccc(C2=Nn3c(N/N=C4/C(=O)Nc5ccc(Br)cc54)nnc3SC2)cc1,UACC-257,"cell growth or viability, SRB",10 µM,,inhibition,23%
COc1cc(CNC(=O)C[C@H](C)CCC=C(C)C)ccc1OCc1cn(-c2ccccc2Cl)nn1,HOP-92,SRB,"10 µM, 48 h",,growth percent,79.4%
CCCCCCCCCCCCCCCC(=O)N[C@@H](CCCCN)C(=O)N[C@@H](CCCCN)C(=O)N[C@@H](CO)C(=O)N[C@@H](CCCNC(=N)N)C(=O)N[C@@H](C)C(=O)N[C@@H](CC(C)C)C(=O)N[C@@H](Cc1ccccc1)C(N)=O,human gel-filtered platelets,platelet aggregation,"concentration not given, added: ADP 20 µM",,inhibition,inactive
COc1cc(CNC(=O)C[C@H](C)CCC=C(C)C)ccc1OCc1cn(-c2cccc(Cl)c2)nn1,HOP-92,SRB,"10 µM, 48 h",,growth percent,71.9%
COc1ccc(C=C2SC(N3N=C(c4cccs4)CC3c3ccc(F)cc3)=NC2=O)cc1 (centres unmarked),T47D,PI flow cytometry,"concentration not given, 24 h",,cells in %G2/M phase,3.43%
COc1cc(CNC(=O)C[C@H](C)CCC=C(C)C)ccc1OCc1cn(-c2ccc(C#N)cc2)nn1,NCI-H322M,SRB,"10 µM, 48 h",,growth percent,95%
CC(C)c1cccc(C(C)C)c1-n1c(Cl)c(Cl)n(-c2c(C(C)C)cccc2C(C)C)c1=[Se].[Cl][Au],A2780 ADR,MTT,,relative to: A2780 ADR over A2780,resistance factor,0.5
O=C1c2c(O)cc(O)cc2-c2c(-c3ccc(O)cc3)oc3cc(O)cc1c23,LCC2 CHIP shRNA knockdown,label-free MS proteomics,"10 µM, 24 h",,upregulated protein count,334
COC(=O)CC[C@@H](NC(=O)[C@@H](Cc1ccc(OP(=O)(O)O)cc1)NC(=O)[C@@H](Cc1ccccc1)NC(=O)[C@@H](Cc1ccccc1)NC(=O)Cc1ccc2ccccc2c1)C(=O)OC,SAOS-2,MTT,"10 µM, added: TNAP inhibitor DQB 2 µM",,viability,23%
N=C(N/N=C/c1ccccc1)N/N=C/c1ccccc1,PANC-1,crystal violet,72 h,relative to: IC50 hTERT-HPNE over IC50 PANC-1,selectivity ratio,2.1
COc1cc(CNC(=O)C[C@H](C)CCC=C(C)C)ccc1OCc1cn(-c2ccc(Cl)cc2Cl)nn1,CAKI-1,SRB,"10 µM, 48 h",,growth percent,31.8%
O=Cc1c(O)ccc2ccccc12,HUVEC,"RNA sequencing, measured: MCM6","75 µM, 24 h",relative to: DMSO,log2 fold change,-2.99
COc1cc(CNC(=O)C[C@H](C)CCC=C(C)C)ccc1OCc1cn(-c2ccc(Cl)c(Cl)c2)nn1,KM12,SRB,"10 µM, 48 h",,growth percent,82.7%
C=C1[C@H](O)CC(=C/C=C2\CCC[C@]3(C)[C@@H]([C@@H](C)CCCC)CC[C@@H]23)C[C@H]1O,rat osteosarcoma cells,"reporter gene, luciferase, measured: CYP24A1 (24-hydroxylase) promoter",,"relative to: compound over 1α,25-dihydroxyvitamin D3",EC50 ratio,15
C(=C/c1ccccc1)/c1ccccc1,KG-1a,"apoptosis, measured: caspase-3 activity","24 h, lowest dose with significant induction",relative to: vehicle,lowest effective concentration,10 µM
CCCc1nn(C)c2c(=O)[nH]c(-c3cc(S(=O)(=O)N4CCN(C)CC4)ccc3OCC)nc12,hiPSC cardiac tissues 3D,active force,"15 min per concentration, paced at 1 Hz serum-free",,minimum effective concentration,100 µM
CCc1cccc(CC)c1NC(=O)c1nn(C)c2c1CCc1cnc(Nc3ccc(N4CCN(C)CC4)cc3OC)nc1-2,HeLa H2B-YFP,"mitotic timing, live cell imaging","50 and 100 nM, within 15 min",,cells entering anaphase,~100%
CC(=O)OC[C@H]1O[C@@H](Sc2sc(C(=O)c3ccc(C)cc3)c(N)c2-c2nc3ccccc3s2)[C@H](OC(C)=O)[C@@H](OC(C)=O)[C@H]1OC(C)=O,KM12,SRB,"10 µM, 48 h",relative to: untreated,growth,105%
CC(=C(c1ccc(O)cc1)c1ccc(Cl)cc1)c1ccc(Cl)cc1,TK-10,cell growth or viability,,,GI50,2750 nM
COc1ccc(NC(=O)COc2ccc(/C=C/C(C)=N/O)cc2OC)cc1,SH-SY5Y,DCFDA flow cytometry,"10 µM, added: amyloid beta 10 µM",,ROS-positive cells,38.8%
